Results of several laboratories.
Compare with care: the assays were run in different laboratories. ± marks the error that the study gave.

[123I]c1ccc2nc(-c3ccc(-n4ccnn4)nc3)cn2c1  tissue uptake (male Wistar rat, large intestine; intravenous, 4 MBq, 1 h): 0.139 ± 0.032 %ID/g
COc1cccc(OC)c1-c1cc(C(=O)NC2(C(=O)O)C3CC4CC(C3)CC2C4)nn1-c1ccc(C(=O)NCCNC(=O)[C@H](CCCCNC(=O)[C@H](CC(C)C)NC(=O)C2OC2C(=O)O)NC(=O)CN2CCN(CC(=O)[O-])CCN(CC(=O)[O-])CCN(CC(=O)[O-])CC2)cc1C(C)C.[177Lu+3] (mixture of isomers)  tissue uptake (mouse, HT-29 xenograft, heart; 24 h post injection): 0.33 %ID/g
N#C[C@@H]1CC(F)(F)CN1C(=O)CNC(=O)c1ccnc2c(NC(=O)CCOCCOCCOCCOCCOCCOCCNC(=O)[C@H](CCCCNC(=O)CN3CCN(CC(=O)[O-])CCN(CC(=O)[O-])CCN(CC(=O)[O-])CC3)NC(=O)CCCc3ccc(I)cc3)cccc12.[177Lu+3]  tissue uptake (mouse, U-87 MG tumour xenograft, kidneys; 1 h): 1.97 ± 0.59 %ID/g
O=C(O)CCCOc1ccc([18F])cc1-c1cc(-c2ccccc2C(F)(F)F)n(-c2ccccc2)n1  tissue uptake (mouse, muscle; intravenous, dose not given, 180 min): 2.74 ± 0.2 %ID/g
O=C(NCC1OC2CCC=CCCC2O1)c1ccc([18F])nc1 (centres unmarked)  tissue uptake (healthy female BALB/c nude mice, spleen; intravenous, 7.4 MBq per mouse, 5 min): 3.8 ± 1 %ID/g
N#C[C@@H]1CC(F)(F)CN1C(=O)CNC(=O)c1ccnc2c(NC(=O)[C@@H](N)CCCCNC(=O)CCOCCOCCOCCOCCOCCOCCNC(=O)CN3CCN(CC(=O)[O-])CCN(CC(=O)[O-])CCN(CC(=O)[O-])CC3)cccc12.[177Lu+3]  tissue uptake (mouse, U-87 MG tumour xenograft, lung; 4 h): 0.81 ± 0.3 %ID/g
[11CH3]N1CCC(NC(=O)c2cc(-c3c(O)cc(O)cc3Oc3ccc([N+](=O)[O-])cc3)on2)CC1  tissue uptake (Wistar rat, female, healthy, lungs; intravenous, 2 min): 1.2 ± 0.3 %ID
COc1cccc(OC)c1-c1cc(C(=O)NC2(C(=O)O)C3CC4CC(C3)CC2C4)nn1-c1ccc(C(=O)N(C)CCOCCN(C)C(=O)[C@H](CCCCNC(=O)[C@H](CC(C)C)NC(=O)C2OC2C(=O)O)NC(=O)CN2CCN(CC(=O)[O-])CCN(CC(=O)[O-])CCN(CC(=O)[O-])CC2)cc1C(C)C.[177Lu+3] (mixture of isomers)  tissue uptake (mouse, HT-29 xenograft, liver; 72 h post injection): 0.69 %ID/g
CC(C)Cc1ccc(C(C)C(=O)N[C@@H](CCCCNC(=O)CCOCCOCCOCCOCCOCCOCCNC(=O)CN2CCN(CC(=O)[O-])CCN(CC(=O)[O-])CCN(CC(=O)[O-])CC2)C(=O)Nc2cccc3c(C(=O)NCC(=O)N4CC(F)(F)C[C@H]4C#N)ccnc23)cc1.[177Lu+3] (some centres unmarked)  tissue uptake (mouse, U-87 MG tumour xenograft, kidneys; 48 h): 0.55 ± 0.18 %ID/g
CCCC[C@H](NC(=O)CNC(=O)CNC(=O)[C@H](CCCCNC(=O)[C@H](CC(=O)O)NC(=O)C(C)c1ccc(CC(C)C)cc1)NC(=O)CN1CCN(CC(=O)O)CCN(CC(=O)O)CCN(CC(=O)O)CC1)C(=O)N[C@H]1CC(=O)NCCCC[C@@H](C(N)=O)NC(=O)[C@H](Cc2c[nH]c3ccccc23)NC(=O)[C@H](CCCNC(=N)N)NC(=O)[C@@H](Cc2ccccc2)NC(=O)[C@H](Cc2c[nH]cn2)NC1=O (some centres unmarked) [lutetium-177 labelled]  tissue uptake (C57 mouse, intestines; intravenous, 2 h, 177Lu-labelled, receptor blockade, added: unlabelled NDP-MSH 10 µg co-injected): 1.29 ± 0.33 %ID
N#C[C@@H]1CC(F)(F)CN1C(=O)CNC(=O)c1ccnc2c(NC(=O)[C@H](CCCCNC(=O)CCOCCOCCOCCOCCOCCOCCNC(=O)CN3CCN(CC(=O)[O-])CCN(CC(=O)[O-])CCN(CC(=O)[O-])CC3)NC(=O)CCCc3ccc(I)cc3)cccc12.[177Lu+3]  tissue uptake (mouse, U-87 MG tumour xenograft, lung; 48 h): 0.37 ± 0.25 %ID/g
COc1cccc(OC)c1-c1cc(C(=O)NC2(C(=O)O)C3CC4CC(C3)CC2C4)nn1-c1ccc(C(=O)N(C)CCCN(C)CCCN(C)C(=O)[C@H](CCCCNC(=O)[C@H](CC(C)C)NC(=O)C2OC2C(=O)O)NC(=O)CN2CCN(CC(=O)[O-])CCN(CC(=O)[O-])CCN(CC(=O)[O-])CC2)cc1C(C)C.[177Lu+3] (mixture of isomers)  tissue uptake (mouse, HT-29 xenograft, kidney; 72 h post injection): 5.2 %ID/g
Cc1cc(C)n(CCN(CCN)CCCCCCNC(=O)[C@@H](N)Cc2c[nH]cn2)n1.[99Tc+].[C-]#[O+].[C-]#[O+].[C-]#[O+]  tissue uptake (BALB/c nude mice, MCF7 xenograft, lung; intravenous, 15 min): 2.72 ± 0.3 %IA/g
CCCC[C@H](NC(=O)CCCCCCCNC(=O)CN1CCN(CC(=O)O)CCN(CC(=O)O)CC1)C(=O)N[C@H]1CC(=O)NCCCC[C@@H](C(N)=O)NC(=O)[C@H](Cc2c[nH]c3ccccc23)NC(=O)[C@H](CCCNC(=N)N)NC(=O)[C@@H](Cc2ccccc2)NC(=O)[C@H](Cc2c[nH]cn2)NC1=O [fluorine-18 labelled]  tissue uptake (C57 mice B16-F10 melanoma, muscle; intravenous, 0.37 MBq, 0.5 h): 0.68 ± 0.24 %ID/g

A few entries again:
CCCC[C@H](NC(=O)CCCCCCCNC(=O)CN1CCN(CC(=O)O)CCN(CC(=O)O)CC1)C(=O)N[C@H]1CC(=O)NCCCC[C@@H](C(N)=O)NC(=O)[C@H](Cc2c[nH]c3ccccc23)NC(=O)[C@H](CCCNC(=N)N)NC(=O)[C@@H](Cc2ccccc2)NC(=O)[C@H](Cc2c[nH]cn2)NC1=O [fluorine-18 labelled]  tissue uptake (C57 mice B16-F10 melanoma, muscle; intravenous, 0.37 MBq, 0.5 h): 0.68 ± 0.24 %ID/g
